# Measured values of several laboratories.
# Each numbered part is a random draw from the data of one study; scales do not carry over between parts.
# Sequence of UniProt O94768 (whole entry, looked up): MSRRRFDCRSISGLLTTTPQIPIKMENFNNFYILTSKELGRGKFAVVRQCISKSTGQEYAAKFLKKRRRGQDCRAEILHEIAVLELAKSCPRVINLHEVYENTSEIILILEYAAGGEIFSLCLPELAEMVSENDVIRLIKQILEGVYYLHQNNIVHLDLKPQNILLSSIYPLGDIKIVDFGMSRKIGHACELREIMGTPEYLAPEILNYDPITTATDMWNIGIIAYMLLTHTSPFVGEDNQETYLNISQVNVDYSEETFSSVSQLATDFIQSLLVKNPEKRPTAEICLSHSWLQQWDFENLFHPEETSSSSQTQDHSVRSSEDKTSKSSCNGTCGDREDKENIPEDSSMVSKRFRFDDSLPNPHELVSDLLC
# Sequence of UniProt P15056 (whole entry, unmodified, looked up): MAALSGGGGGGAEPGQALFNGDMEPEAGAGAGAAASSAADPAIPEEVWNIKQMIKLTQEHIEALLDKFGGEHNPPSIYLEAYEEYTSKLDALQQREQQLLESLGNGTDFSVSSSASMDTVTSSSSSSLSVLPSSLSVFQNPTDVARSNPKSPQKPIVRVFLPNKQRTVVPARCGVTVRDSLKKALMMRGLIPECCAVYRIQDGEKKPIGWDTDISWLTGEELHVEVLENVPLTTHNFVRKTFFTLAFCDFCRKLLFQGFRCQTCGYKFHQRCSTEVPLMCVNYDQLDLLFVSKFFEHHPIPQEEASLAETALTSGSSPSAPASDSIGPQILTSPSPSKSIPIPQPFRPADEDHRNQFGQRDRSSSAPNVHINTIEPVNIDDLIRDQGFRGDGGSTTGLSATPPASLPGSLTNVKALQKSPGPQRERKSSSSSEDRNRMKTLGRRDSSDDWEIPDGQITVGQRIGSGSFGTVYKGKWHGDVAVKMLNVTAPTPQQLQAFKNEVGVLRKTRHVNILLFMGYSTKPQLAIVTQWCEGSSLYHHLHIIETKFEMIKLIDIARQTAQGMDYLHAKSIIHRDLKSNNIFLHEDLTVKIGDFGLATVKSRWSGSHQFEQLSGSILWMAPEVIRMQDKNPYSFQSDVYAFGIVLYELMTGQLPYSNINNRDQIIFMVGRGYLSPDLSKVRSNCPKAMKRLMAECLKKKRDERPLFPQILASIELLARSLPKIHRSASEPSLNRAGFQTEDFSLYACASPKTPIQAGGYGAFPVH
# Sequence of UniProt Q99683 (whole entry, looked up): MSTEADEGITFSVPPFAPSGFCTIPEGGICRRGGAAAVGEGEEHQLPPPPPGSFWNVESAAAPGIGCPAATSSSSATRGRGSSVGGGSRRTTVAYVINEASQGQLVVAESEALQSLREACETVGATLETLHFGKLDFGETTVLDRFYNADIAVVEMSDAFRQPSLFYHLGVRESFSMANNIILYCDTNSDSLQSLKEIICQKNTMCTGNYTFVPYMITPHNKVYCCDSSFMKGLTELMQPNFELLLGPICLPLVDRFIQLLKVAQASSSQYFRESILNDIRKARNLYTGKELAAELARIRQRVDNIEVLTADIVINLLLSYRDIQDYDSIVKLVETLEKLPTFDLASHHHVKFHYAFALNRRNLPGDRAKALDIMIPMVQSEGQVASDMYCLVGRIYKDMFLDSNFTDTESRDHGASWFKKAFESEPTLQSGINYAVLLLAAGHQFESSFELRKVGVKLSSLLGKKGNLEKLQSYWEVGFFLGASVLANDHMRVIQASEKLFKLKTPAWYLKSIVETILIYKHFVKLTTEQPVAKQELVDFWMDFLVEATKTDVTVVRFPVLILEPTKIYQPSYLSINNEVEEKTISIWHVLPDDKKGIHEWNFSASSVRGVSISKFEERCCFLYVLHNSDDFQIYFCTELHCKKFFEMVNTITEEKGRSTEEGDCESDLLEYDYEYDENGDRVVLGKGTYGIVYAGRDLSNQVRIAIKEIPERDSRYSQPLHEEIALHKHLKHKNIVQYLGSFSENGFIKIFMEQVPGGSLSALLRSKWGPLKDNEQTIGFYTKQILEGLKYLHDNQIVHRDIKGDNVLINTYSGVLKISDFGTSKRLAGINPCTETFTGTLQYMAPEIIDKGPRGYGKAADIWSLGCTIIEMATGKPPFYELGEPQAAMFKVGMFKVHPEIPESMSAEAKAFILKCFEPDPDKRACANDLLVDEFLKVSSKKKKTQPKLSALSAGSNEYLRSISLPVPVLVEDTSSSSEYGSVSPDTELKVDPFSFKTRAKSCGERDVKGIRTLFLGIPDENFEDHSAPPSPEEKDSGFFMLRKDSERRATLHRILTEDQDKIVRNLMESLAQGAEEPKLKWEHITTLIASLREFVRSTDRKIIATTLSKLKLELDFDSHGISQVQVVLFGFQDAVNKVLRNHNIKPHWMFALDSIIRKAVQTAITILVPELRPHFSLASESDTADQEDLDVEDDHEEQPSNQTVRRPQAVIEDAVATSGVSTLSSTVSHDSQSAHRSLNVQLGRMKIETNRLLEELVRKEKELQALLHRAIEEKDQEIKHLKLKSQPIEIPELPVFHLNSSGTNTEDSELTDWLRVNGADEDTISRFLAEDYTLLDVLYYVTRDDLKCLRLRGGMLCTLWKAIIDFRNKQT
# Sequence of UniProt P07949 (whole entry, unmodified, looked up): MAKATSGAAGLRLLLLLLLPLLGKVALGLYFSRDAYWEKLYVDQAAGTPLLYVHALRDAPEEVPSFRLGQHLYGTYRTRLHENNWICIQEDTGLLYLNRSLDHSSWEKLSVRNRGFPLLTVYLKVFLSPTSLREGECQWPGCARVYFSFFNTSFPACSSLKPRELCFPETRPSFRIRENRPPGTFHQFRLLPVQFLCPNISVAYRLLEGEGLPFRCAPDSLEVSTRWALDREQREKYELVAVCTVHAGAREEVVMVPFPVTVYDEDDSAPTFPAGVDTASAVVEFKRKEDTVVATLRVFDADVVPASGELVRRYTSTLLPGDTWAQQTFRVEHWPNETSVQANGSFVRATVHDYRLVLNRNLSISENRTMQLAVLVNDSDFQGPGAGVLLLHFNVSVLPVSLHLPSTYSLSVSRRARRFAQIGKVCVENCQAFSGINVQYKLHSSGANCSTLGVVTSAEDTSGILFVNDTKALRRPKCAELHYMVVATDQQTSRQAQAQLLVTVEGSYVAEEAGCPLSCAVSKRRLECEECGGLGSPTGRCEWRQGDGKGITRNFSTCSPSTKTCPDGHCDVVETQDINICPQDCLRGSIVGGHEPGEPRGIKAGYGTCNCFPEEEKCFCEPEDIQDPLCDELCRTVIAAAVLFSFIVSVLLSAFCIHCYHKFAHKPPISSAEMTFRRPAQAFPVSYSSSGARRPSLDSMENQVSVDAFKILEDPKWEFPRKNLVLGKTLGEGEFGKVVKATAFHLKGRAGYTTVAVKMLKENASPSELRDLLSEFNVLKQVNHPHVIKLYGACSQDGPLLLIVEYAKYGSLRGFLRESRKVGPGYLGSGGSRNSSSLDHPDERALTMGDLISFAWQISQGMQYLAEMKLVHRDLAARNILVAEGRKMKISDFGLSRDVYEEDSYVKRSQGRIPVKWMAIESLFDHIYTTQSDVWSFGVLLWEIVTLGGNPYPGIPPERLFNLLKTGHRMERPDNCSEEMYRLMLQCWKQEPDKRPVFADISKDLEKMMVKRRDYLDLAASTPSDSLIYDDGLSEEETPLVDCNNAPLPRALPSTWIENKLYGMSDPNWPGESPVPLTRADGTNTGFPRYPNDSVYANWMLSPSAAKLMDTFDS
# Sequence of UniProt P11802 (whole entry, looked up): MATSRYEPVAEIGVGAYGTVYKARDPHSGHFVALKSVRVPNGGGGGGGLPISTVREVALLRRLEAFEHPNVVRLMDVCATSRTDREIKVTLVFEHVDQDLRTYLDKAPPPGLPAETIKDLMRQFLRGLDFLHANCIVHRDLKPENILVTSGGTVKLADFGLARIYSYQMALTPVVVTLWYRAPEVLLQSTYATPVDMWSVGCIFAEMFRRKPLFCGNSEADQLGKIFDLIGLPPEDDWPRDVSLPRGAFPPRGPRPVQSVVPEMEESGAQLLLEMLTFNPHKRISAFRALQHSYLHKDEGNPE
# Sequence of UniProt Q9UPE1 (whole entry, looked up): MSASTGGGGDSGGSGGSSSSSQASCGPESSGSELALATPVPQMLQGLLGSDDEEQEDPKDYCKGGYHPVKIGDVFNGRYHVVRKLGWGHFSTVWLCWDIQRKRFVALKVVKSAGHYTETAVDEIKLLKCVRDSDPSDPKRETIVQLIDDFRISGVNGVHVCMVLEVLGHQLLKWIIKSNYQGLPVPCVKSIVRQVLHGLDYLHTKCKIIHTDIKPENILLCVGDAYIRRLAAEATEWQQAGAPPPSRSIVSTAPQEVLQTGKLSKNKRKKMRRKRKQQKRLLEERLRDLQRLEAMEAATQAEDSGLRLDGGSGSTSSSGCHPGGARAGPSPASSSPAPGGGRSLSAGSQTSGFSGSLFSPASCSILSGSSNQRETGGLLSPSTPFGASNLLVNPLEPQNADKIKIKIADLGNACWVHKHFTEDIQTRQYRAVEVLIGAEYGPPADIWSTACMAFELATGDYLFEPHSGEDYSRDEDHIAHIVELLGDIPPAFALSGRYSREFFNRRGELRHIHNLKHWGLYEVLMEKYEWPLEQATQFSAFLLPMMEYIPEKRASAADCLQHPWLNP

# Sample 1
# Species: human
# Matrix: microsomes or S9
# Tested at: 2 µM
# Time: 0.5 h
SMILES,remaining compound [%]
Cn1nc(CNC(=O)c2cccn(C)c2=O)c2c1CCCC2,62.2
CCc1nnc(NCc2ccccc2F)c2cc3sc(C)cc3n12,76
Nc1ccc2oc(=O)c3c(c2c1)CC(C(F)(F)F)S3 (stereo not drawn),70.1
Cc1cccc(C)c1C1=NOC(C)(CS(=O)(=O)C2=NOC(C)(C)C2)C1 (stereo not drawn),> 100
O=C(C(Nc1ccc(N2CCCS2(=O)=O)cc1)c1ccccc1)N1CCCC1 (stereo not drawn),81.4
CN(CCOc1ccc(C2=NN(c3ccccc3)C(=O)C2)cc1)c1nc2ccccc2o1,28.5
COc1cc2c(Nc3cccc(Br)c3)ncnc2cc1OCC1CNCCO1 (stereo not drawn),> 99.9
COCC(C)(C)c1noc(-c2cccc3nn[nH]c23)n1,77.8

# Sample 2
# SMILES: C[C@@]1(Cc2ccc(C#N)cc2)C(=O)N(c2cc(Cl)cc(Cl)c2)c2ncc(C(=O)NC3(c4nc(C5CCC5)no4)CC3)n21
# Observed: cell-free assay
# Technique: competition with immobilised ligand
# Tested at: 1 µM
target,remaining binding
"Phosphatidylinositol 4,5-bisphosphate 3-kinase catalytic subunit alpha isoform (PIK3CA, Homo sapiens, UniProt P42336, H1047L)",96%
"Receptor-type tyrosine-protein kinase FLT3 (FLT3, Homo sapiens, UniProt P36888, R834Q)",100%
"SRSF protein kinase 3 (SRPK3, Homo sapiens, UniProt Q9UPE1)",100%
"Serine/threonine-protein kinase B-raf (BRAF, Homo sapiens, UniProt P15056, V600E)",100%
"Tyrosine-protein kinase SYK (SYK, Homo sapiens, UniProt P43405)",100%
"Serine/threonine-protein kinase 35 (STK35, Homo sapiens, UniProt Q8TDR2)",100%
"Serine/threonine-protein kinase 17B (STK17B, Homo sapiens, UniProt O94768)",100%
"Mitogen-activated protein kinase kinase kinase 5 (MAP3K5, Homo sapiens, UniProt Q99683)",100%
"Cyclin-dependent kinase 4 (CDK4, Homo sapiens, UniProt P11802)",100%
"Proto-oncogene tyrosine-protein kinase receptor Ret (RET, Homo sapiens, UniProt P07949, V804M)",100%
"Serine/threonine-protein kinase Sgk1 (SGK1, Homo sapiens, UniProt O00141)",100%

# Sample 3
# Target: Calcium/calmodulin-dependent protein kinase type II subunit alpha (CAMK2A, Homo sapiens, UniProt Q9UQM7)
# Sequence of UniProt Q9UQM7 (whole entry, looked up): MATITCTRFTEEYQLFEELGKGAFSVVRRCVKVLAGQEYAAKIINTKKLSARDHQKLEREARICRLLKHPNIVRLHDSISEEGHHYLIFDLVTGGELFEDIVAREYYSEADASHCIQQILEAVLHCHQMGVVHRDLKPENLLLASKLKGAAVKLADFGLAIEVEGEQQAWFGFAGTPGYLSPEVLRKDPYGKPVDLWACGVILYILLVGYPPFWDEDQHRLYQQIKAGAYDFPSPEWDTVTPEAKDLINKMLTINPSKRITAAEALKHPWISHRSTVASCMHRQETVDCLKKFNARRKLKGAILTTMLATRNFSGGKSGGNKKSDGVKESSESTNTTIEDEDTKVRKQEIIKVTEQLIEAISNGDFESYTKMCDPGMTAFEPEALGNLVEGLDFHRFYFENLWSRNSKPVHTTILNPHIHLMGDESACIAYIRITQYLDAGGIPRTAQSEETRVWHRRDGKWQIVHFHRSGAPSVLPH
# Observed: enzyme activity
# Action: inhibitor
# Tested at: 10 µM
SMILES,inhibition
C[C@@H]1O[C@@H](OC[C@H]2O[C@@H](Oc3c(-c4ccc(O)cc4)oc4cc(O)cc(O)c4c3=O)[C@H](O[C@@H]3O[C@H](CO)[C@@H](O)[C@H](O)[C@H]3O)[C@@H](O)[C@@H]2O)[C@H](O)[C@H](O)[C@H]1O,-72%
CC(C)C[C@H](NC(=O)[C@@H](N)CC(C)C)C(=O)O,4%
O=C1O[C@@H]2[C@@H](O)[C@H](O)[C@@H](CO)O[C@H]2c2c1cc(O)c(O)c2O,-8%
COC[C@@H](Cc1ccc(OC)c(OC)c1)[C@@H](COC)Cc1ccc(OC)c(OC)c1,-27%
Cn1cnc(C[C@H](N)C(=O)O)c1,-13%
CCC/C=C1\OC(=O)C2=C1CC[C@@H](O)[C@H]2O,-4%
O=C(O[C@H]1C[N+]2(CCCOc3ccccc3)CCC1CC2)C(O)(c1cccs1)c1cccs1,-11%

# Further values, each from its own experiment
SMILES,technique,quantity,value
CCOC(=O)[C@@H]1CSCC(=O)N[C@H](CC)C(=O)N(CC(C)C)CC(=O)N[C@@H](CC(C)C)C(=O)N(C)[C@H](C)C(=O)N(C)[C@@H](C)C(=O)N[C@H](CC(C)C)C(=O)N(C)[C@@H](C)C(=O)N[C@@H](CC(C)C)C(=O)N1C,PRP-column chromatography,log k' (60),0.861

# A few entries again (sample 2):
target,remaining binding
"SRSF protein kinase 3 (SRPK3, Homo sapiens, UniProt Q9UPE1)",100%
